# Published values pooled from the literature.
# Each numbered part is a random draw from the data of one study; scales do not carry over between parts. Positions count from the first letter of the parent shown.

# Study 1
# Target: CCNF, cyclin fold, Cln2 fusion (human)
# Technique: yeast growth competition, sequencing
# Sample: yeast
# Setting: strong parent motif
# Relative to: not given
# Direction: higher = stronger binding
# Parent: RBL1 docking peptide (human); GSAKRRLFGEDPP
Variant,normalised enrichment score
CSAKRRLFGEDPP [G1C],7.98
GSAKRRLFGEDAP [P12A],6.45
GSAKRRLFGEVPP [D11V],6.87
GSAKRRLFGNDPP [E10N],6.7
RSAKRRLFGEDPP [G1R],8.1
GSAKRRTFGEDPP [L7T],0.0952
GSAKRRLFVEDPP [G9V],8.94
GSAKRRLFGEDPQ [P13Q],7.12

# Study 2
# Target: NFE2L1, bZIP domain (human)
# Technique: DHFR protein complementation
# Sample: yeast
# Setting: single substitutions, most at no-binding floor
# Relative to: wild-type JUN-FOS pair
# Direction: higher = stronger binding
# Parent: JUN, bZIP domain (human); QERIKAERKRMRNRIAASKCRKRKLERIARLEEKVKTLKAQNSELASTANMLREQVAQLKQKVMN; partner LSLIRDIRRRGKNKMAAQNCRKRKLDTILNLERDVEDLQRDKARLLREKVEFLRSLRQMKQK
Variant,binding fitness
K36D,-1.47 natural log
E32Q,-1.49 natural log
L38Q,-1.57 natural log
A57V,-1.53 natural log
A49S,-1.59 natural log
A29N,-1.54 natural log
V35C,-1.46 natural log
A46G,-1.52 natural log
E32A,-1.55 natural log
K39R,-1.34 natural log
R30Y,-1.12 natural log

# Study 3
# Target: Sal-like protein 4, full length isoform B (SALL4, Homo sapiens, UniProt Q9UJQ4-2, residues 1-616)
# Technique: universal PBM
# Molecule type: double-stranded DNA, one strand shown
# Sample: in vitro
# Tested at: not given
# Setting: 8-mer, flanks averaged, mean of replicates
# Direction: higher = stronger binding
# Target sequence (chain): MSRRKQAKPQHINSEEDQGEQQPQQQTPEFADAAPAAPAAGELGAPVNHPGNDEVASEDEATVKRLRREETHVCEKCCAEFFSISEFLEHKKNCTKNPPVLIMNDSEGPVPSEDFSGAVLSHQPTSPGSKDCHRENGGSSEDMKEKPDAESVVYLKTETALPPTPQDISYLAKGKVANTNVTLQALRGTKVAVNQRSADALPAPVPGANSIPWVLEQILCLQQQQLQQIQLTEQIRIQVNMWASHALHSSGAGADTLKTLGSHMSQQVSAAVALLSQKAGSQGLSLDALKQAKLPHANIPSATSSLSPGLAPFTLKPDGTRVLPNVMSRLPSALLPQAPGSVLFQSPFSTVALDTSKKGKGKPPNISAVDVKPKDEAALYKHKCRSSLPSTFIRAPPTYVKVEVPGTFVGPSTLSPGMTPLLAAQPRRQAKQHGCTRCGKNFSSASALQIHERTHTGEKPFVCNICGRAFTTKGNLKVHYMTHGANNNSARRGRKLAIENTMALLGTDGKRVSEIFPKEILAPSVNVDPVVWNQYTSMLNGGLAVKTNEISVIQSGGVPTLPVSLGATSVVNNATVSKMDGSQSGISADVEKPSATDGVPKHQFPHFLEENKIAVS
Strand,E-score
AAATTTGT,0.321
ATACCGGC,-0.201
AAACTTAG,0.115
TTACGAAA,0.242
GGATTTCA,0.114
GTAACGTA,0.228
ATGGCTTC,0.11

# Single results of other studies
Molecule,target,assay,test system,setting,how to read,measurement,result
"PhoQ, residues 284 288 289 292 302 303 SLSVQF","PhoP, residues 12 14 15 18 19 NNFVT (Escherichia coli, UniProt P23836)","Sort-seq, refers to: YFP reporter",E. coli,"PhoQ-PhoP variant library, added: 10 µM Mg2+","relative to: high Mg2+ state, higher = stronger signaling",fold induction,16.7

# A few entries again (single results of other studies):
Molecule,target,assay,test system,setting,how to read,measurement,result
"PhoQ, residues 284 288 289 292 302 303 SLSVQF","PhoP, residues 12 14 15 18 19 NNFVT (Escherichia coli, UniProt P23836)","Sort-seq, refers to: YFP reporter",E. coli,"PhoQ-PhoP variant library, added: 10 µM Mg2+","relative to: high Mg2+ state, higher = stronger signaling",fold induction,16.7
